Assay results from different studies.
± marks the error that the study gave.

Compound	tested on	assay	system	conditions	measurement	result
N=C(N)NCCC[C@@H](NC(=O)CCOCCOCCNC(=O)[C@H](CCCCNC(=O)CC[C@H](NC(=O)c1ccc(NCc2cnc3nc(N)[nH]c(=O)c3n2)cc1)C(=O)O)NC(=O)CO/N=C/[C@H](F)[C@@H](O)[C@H](O)[C@H](O)CO)C(=O)NCC(=O)N[C@H](CC(=O)O)C(N)=O [fluorine-18 labelled]		radio-HPLC	athymic nude mice, urine	2.5 h	intact radiotracer in urine	> 75%
Cc1[nH]c2ccccc2c1CCNCc1ccc(/C=C/C(=O)NO)cc1	HBL-1			0.5 µM, 120 h	viability	0.252%
CC(C)[C@H](NC(=O)[C@H](Cc1ccc(O)cc1)NC(=O)[C@H](Cc1ccc(O)cc1)NC(=O)[C@@H]1CCCN1C(=O)[C@H](CCC(=O)O)NC(=O)[C@H](CCC(=O)O)NC(=O)[C@H](Cc1c[nH]c2ccccc12)NC(=O)[C@@H]1CCCN1C(=O)[C@@H](NC(=O)[C@H](CCC(N)=O)NC(=O)c1ccc2c(c1)C(=O)OC21c2ccc(O)cc2Oc2cc(O)ccc21)C(C)C)C(=O)N[C@H](C(=O)N[C@@H](CCCCN)C(=O)N[C@@H](CCCCN)C(=O)N[C@@H](CO)C(=O)N[C@@H](CO)C(=O)NCC(=O)NCC(N)=O)C(C)C		item: total compound	human, plasma	intravenous infusion, 200 mg, 1 h	plasma concentration	2600 ng/mL
COc1cccc2c1C(=O)c1c(O)c3c(c(O)c1C2=O)C[C@@](O)(C(=O)CO)C[C@@H]3O[C@H]1C[C@H](NC(=O)[C@@H]2CCCN2C(=O)CN)[C@H](O)[C@H](C)O1			healthy mouse, plasma	intravenous, 849.5 mg/kg PhAc-ALGP-Dox	Cmax	3.9 ± 0.53 µM
COc1cc2nc(N3CCCN(C)CC3)nc(NC3CCN(Cc4ccccc4)CC3)c2cc1OC	HBL-1			0.1 µM, 120 h	viability	122%
O=C(O)CC[C@H](NC(=O)N[C@@H](CCCCNC(=O)[C@H](Cc1ccc2ccccc2c1)NC(=O)CCCCCNC(=O)CN1CCN(CC(=O)O)CCN(CC(=O)O)CCN(CC(=O)O)CC1)C(=O)O)C(=O)O [gallium-68 labelled]		PET/CT SUVmean	mice with 22Rv1 xenograft	intravenous, 3.7 MBq, 8 h	tumour to non-tumour ratio	2.77 ± 0.21
CC(C)C[C@H](NC(=O)C[C@H](O)[C@H](CC(C)C)NC(=O)[C@H](Cc1c[nH]cn1)NC(=O)CNC(=O)[C@@H](NC(=O)[C@H](C)NC(=O)[C@H](Cc1c[nH]c2ccccc12)NC(=O)[C@H](CCC(N)=O)NC(=O)[C@@H](Cc1ccccc1)NC(=O)COCCOCCNC(=O)CN1CCN(CC(=O)O)CCN(CC(=O)O)CCN(CC(=O)O)CC1)C(C)C)C(N)=O [lutetium-177 labelled]			female BALB/c nu/nu mice, pancreas	intravenous, 50 pmol, 1 h	tissue uptake	5 ± 1 %ID/g
COc1cccc2c1C(=O)c1c(O)c3c(c(O)c1C2=O)C[C@@](O)(C(=O)CO)C[C@@H]3O[C@H]1C[C@H](NC(=O)[C@@H]2CCCN2C(=O)CNC(=O)[C@@H](N)CC(C)C)[C@H](O)[C@H](C)O1			healthy mouse, plasma	intravenous, 849.5 mg/kg PhAc-ALGP-Dox	Cmax	2.5 ± 0.18 µM
CC(C)=NNc1ccc(C(=O)N[C@H]2CSSC[C@@H](C(=O)O)NC(=O)[C@H](Cc3c[nH]cn3)NC(=O)[C@H](CO)NC(=O)[C@H](Cc3ccccc3)NC(=O)[C@@H]3CCCN3C(=O)[C@H](CO)NC(=O)[C@@H]3CCCN3C(=O)[C@H]([C@@H](C)O)NC2=O)cn1		analytical HPLC		acetone hydrazone-protected conjugate	HPLC retention time	24.6 min
CC(C)C[C@H](NC(=O)C[C@H](O)[C@H](CC(C)C)NC(=O)[C@H](Cc1c[nH]cn1)NC(=O)CNC(=O)[C@@H](NC(=O)[C@H](C)NC(=O)[C@H](Cc1c[nH]c2ccccc12)NC(=O)[C@H](CCC(N)=O)NC(=O)[C@@H](Cc1ccccc1)NC(=O)COCCOCCNC(=O)CCC(C(=O)O)N1CCN(CC(=O)O)CCN(CC(=O)O)CCN(CC(=O)O)CC1)C(C)C)C(N)=O (stereo partly shown) [lutetium-177 labelled]			female BALB/c nu/nu mice, bone	intravenous, 100 pmol, 24 h, together with: PA 300 µg	tissue uptake	0.013 ± 0.004 %ID/g

Some of these lines once more:
Compound	tested on	assay	system	conditions	measurement	result
COc1cccc2c1C(=O)c1c(O)c3c(c(O)c1C2=O)C[C@@](O)(C(=O)CO)C[C@@H]3O[C@H]1C[C@H](NC(=O)[C@@H]2CCCN2C(=O)CN)[C@H](O)[C@H](C)O1			healthy mouse, plasma	intravenous, 849.5 mg/kg PhAc-ALGP-Dox	Cmax	3.9 ± 0.53 µM
